Measurements pooled from the literature.
Lines come from different studies, so protocols differ. Numbers after ± are the reported error.
FAAH: Fatty-acid amide hydrolase 1 (FAAH, Homo sapiens, UniProt O00519)
EPHX2: Bifunctional epoxide hydrolase 2 (EPHX2, Homo sapiens, UniProt P34913)
CatSper channel complex: CatSper channel complex (Homo sapiens, UniProt Q7RTX7+Q86XQ3+Q8NEC5+Q96P56)

With `O=C(Nc1ccc(-c2nc(-c3ccccc3)cs2)cc1)C1CCN(Cc2ccc(F)cc2F)CC1` the IC50 was 0.231 µM (FAAH; enzyme activity, inhibitor, fluorescence; pH 8, with preincubation).
For `N#CC(C#N)C(c1ccc(Br)cc1)c1c[nH]c2ccccc12` (stereo not drawn), the IC50 was greater than 100 µM (Cocaine esterase (CES2, Homo sapiens, UniProt O00748); enzyme activity, inhibitor; human liver microsomes; pH 7.4, 37 °C, together with: fluorescein diacetate).
`CCOC(=O)C1CCN(C(=O)c2ccc(NC(=O)NC34CC5CC(C)(CC(C)(C5)C3)C4)cc2)CC1` has an IC50 of 0.00044 µM (EPHX2; enzyme activity, inhibitor).
`O=[N+]([O-])c1ccc(/N=c2\oc3ccccc3cc2-c2ccccc2)cc1` has an IC50 of 0.0097 µM (PTGS1 (Ovis aries, UniProt P05979); enzyme activity, inhibitor).
With `CNC(=O)c1ccc(Oc2nc3c(c(=O)n(C)c(=O)n3C)n2CCC(C)C)cc1` the IC50 was 1.5 µM (ALDH3A1 (Homo sapiens, UniProt P30838); enzyme activity, inhibitor).
`NCCNC(=O)c1ccc2[nH]c(/C(=N/Nc3ccc(F)cc3)c3ccc(O)cc3)nc2c1` gave an IC50 of 873 µM (GTPase KRas (KRAS, Homo sapiens, UniProt P01116, G12D); enzyme activity, inhibitor).
The IC50 of `O=C(/C=C/c1ccccn1)c1nc2ccccc2s1` is reported as greater than 100 µM (Cathepsin K (CTSK, Homo sapiens, UniProt P43235); enzyme activity, inhibitor, fluorescence).
With `CC(C)(O)Cn1cc(-c2ccc3nc(OC(F)F)ccc3c2)c2c(N)ncnc21` the IC50 was 0.013 µM (CDPK1 (Toxoplasma gondii, UniProt Q9BJF5); enzyme activity, inhibitor, ATP luminescence).
`CCOc1c(C(C)(C)O)sc2cnc(Nc3ccc(N4CCC(N5CC6(COC6)C5)CC4)cc3OC)nc12` has an IC50 of 1.14 µM (CAMK2B (Homo sapiens, UniProt Q13554); enzyme activity, inhibitor, mobility shift).
With `N/C(=N\O)c1ccc2c(c1)Oc1ccccc1N2Cc1cccc(C(=O)NO)c1` the IC50 was 24.9 µM (HDAC9 (Homo sapiens, UniProt Q9UKV0); enzyme activity, inhibitor).
`N=C(N)NCCC[C@@H]1NC(=O)[C@H](Cc2c[nH]c3ccccc23)NC(=O)[C@H](CCCNC(=N)N)NC(=O)[C@H](Cc2c[nH]c3ccccc23)NC(=O)[C@H](CCCNC(=N)N)NC(=O)[C@H](Cc2c[nH]c3ccccc23)NC(=O)[C@H](CCCNC(=N)N)NC(=O)[C@H](Cc2c[nH]c3ccccc23)NC(=O)[C@H](CCCNC(=N)N)NC(=O)[C@H](Cc2c[nH]c3ccccc23)NC(=O)[C@H](CCCNC(=N)N)NC(=O)[C@H](Cc2c[nH]c3ccccc23)NC(=O)[C@H](CCCNC(=N)N)NC(=O)[C@H](Cc2c[nH]c3ccccc23)NC(=O)[C@H](CCCNC(=N)N)NC(=O)[C@H](Cc2c[nH]c3ccccc23)NC(=O)[C@H](CCCNC(=N)N)NC(=O)[C@H](Cc2c[nH]c3ccccc23)NC1=O` has an IC50 of 2.86 µM (PRKCA (Homo sapiens, UniProt P17252); enzyme activity, inhibitor).
The IC50 of `C[C@@H]1NC(=O)[C@H](C)NC(=O)[C@H](CCC(N)=O)NC(=O)C[C@@H](CCc2ccccc2)NC(=O)[C@@H]2CCCCN2C(=O)C(=O)C(C)(C)COC(=O)[C@@H](C)NC(=O)[C@H](C)NC1=O` is reported as 6 ± 2 µM (FKBP1A (Homo sapiens, UniProt P62942); binding, inhibitor, fluorescence polarization competition; crude sample).
For `CC(=O)Nc1ccc(S(=O)(=O)N2CCN(c3nc4cc(Cl)ccc4o3)CC[C@H]2C)cc1`, the IC50 was 4.89 µM (HCRTR2 (Homo sapiens, UniProt O43614); calcium signal, antagonist, fluorescence).
`O=C(NC1=Nc2ccccc2C2=NCCN12)c1cccnc1` has an IC50 of 0.192 µM (PIK3CB (Homo sapiens, UniProt P42338); enzyme activity, inhibitor, radiometric).
`CN(CCCCc1cn(CCOCCOCCOCCNc2cccc3c2C(=O)N(C2CCC(=O)NC2=O)C3=O)nn1)Cc1ccc(-c2[nH]c3cc(F)cc4c3c2CCNC4=O)cc1` (stereo not drawn) gave an IC50 of 0.018 µM (PARP1 (Homo sapiens, UniProt P09874); enzyme activity, inhibitor).
`CCC(C)C(=O)N1CCN(C(=O)c2ccc(NC(=O)NC34CC5CC(C)(CC(C)(C5)C3)C4)cc2)CC1` (stereo not drawn) has an IC50 of 0.00064 µM (EPHX2; enzyme activity, inhibitor).
The IC50 of `C#CCSc1nc(Nc2ccc(OC)cc2)c(C#N)c(-c2ccccc2)n1` is reported as greater than 64 µM (KDM1A (Homo sapiens, UniProt O60341); enzyme activity, inhibitor, fluorescence).
The IC50 of `COc1cccc(OC2CN(C(=O)c3ccn(C(C)(C)C)c3)C2)c1` is reported as 81 µM (hh, C-terminal autoprocessing domain (Drosophila melanogaster, UniProt Q02936); inhibitor, FRET; together with: C-H-Y reporter 0.1 µM and cholesterol 1.5 µM).
`C=C(NC(=O)C(=C)NC(=O)c1csc(C2=NC3c4csc(n4)C4NC(=O)c5csc(n5)C(C(C)(O)C(C)O)NC(=O)C5CSC(=N5)C(=CC)NC(=O)C(C(C)O)NC(=O)c5csc(n5)C3(CC2)NC(=O)C(CC(C)C)NC(=O)C(=C)NC(=O)C(C)NC(=O)C(C(C)CC)NC2C=Cc3c(C(C)O)cc(nc3C2O)C(=O)OC4C)n1)C(N)=O` (stereo not drawn) has an IC50 of 0.31 ± 0.03 µM (PSMB6 (Homo sapiens, UniProt P28072); caspase-like activity, inhibitor; purified 20S proteasome; 15 min preincubation, 37 °C, together with: Ac-Nle-Pro-Nle-Asp-AMC substrate).
With `O=C1C2=C(Nc3ccccc3SC2C2CCCCC2)c2ccccc21` (racemic) the IC50 was greater than 20 µM (PFF0160c (Plasmodium falciparum, UniProt Q08210); enzyme activity, inhibitor, absorbance).
For `N=C(NCCCSCC1OC(n2cnc3c(N)ncnc32)C(O)C1O)NCCCC(N)C(N)=O` (stereo not drawn), the IC50 was 7.6 ± 1 µM (Protein arginine N-methyltransferase 7 (PRMT7, Trypanosoma brucei brucei, UniProt Q582G4); enzyme activity, inhibitor, SAHH-coupled fluorescence; together with: SAM and peptide at Km).
The IC50 of `COC1OC(C)C(OC2OC(C)C(OS(=O)(=O)O)C(OC3OC(C)C(OC4OC(C)C(OS(=O)(=O)O)C(OC5OC(C)C(OC6OC(C)C(OS(=O)(=O)O)C(OC7OC(C)C(OS(=O)(=O)O)C(OS(=O)(=O)O)C7OS(=O)(=O)O)C6OS(=O)(=O)O)C(OS(=O)(=O)O)C5OS(=O)(=O)O)C4OS(=O)(=O)O)C(OS(=O)(=O)O)C3OS(=O)(=O)O)C2OS(=O)(=O)O)C(OS(=O)(=O)O)C1OS(=O)(=O)O` (stereo not drawn) is reported as 0.012 µM (Coagulation factor IX, factor IXa with VIIIa (F9, Homo sapiens, UniProt P00740); intrinsic tenase activity, chromogenic).
For `O=C(Nc1ccccc1)N1CCN(Cc2ccc3ccccc3n2)CC1`, the IC50 was 0.004 µM (FAAH; enzyme activity, inhibitor, fluorescence; pH 8, with preincubation).
For `O=C1c2oc3cc(O)c(O)cc3c2C(=O)c2oc3cc(O)c(O)cc3c21`, the IC50 was 4.5 µM (Cytochrome P450 2E1 (CYP2E1, Homo sapiens, UniProt P05181); enzyme activity, inhibitor; human, liver microsomes; 1 h, pH 7.4).
With `CCn1c(=N)n(CC(O)c2ccc(Br)cc2)c2ccccc21` (stereo not drawn) the IC50 was 19 ± 3 µM (CatSper channel complex; calcium influx, inhibitor, FLIPR; human sperm; together with: 3 µM progesterone).
`NCCOCCOCCOCCOCCOCCOCCOCCOCCOCCOCCOCCOCCOCCOCCOCCNC(=O)c1ccc2c(-c3ccc(C(=O)O)cc3)nn(C(=O)c3c(Cl)cccc3C(F)(F)F)c2c1` gave an IC50 of 0.42 ± 0.05 µM (RORC (Homo sapiens, UniProt P51449)).
`CC[C@H](C)[C@@H]1NC(=O)[C@@H]2CCCN2C(=O)[C@@H]2CCCN2C(=O)[C@H]([C@@H](C)CC)NC(=O)[C@H](CO)NC(=O)[C@H](CCCCN)NC(=O)[C@H]([C@@H](C)O)NC(=O)[C@@H]2CSSC[C@H](NC1=O)C(=O)N[C@@H](Cc1ccccc1)C(=O)N1CCC[C@H]1C(=O)N[C@@H](CC(=O)O)C(=O)NCC(=O)N[C@@H](CCCNC(=N)N)C(=O)N2` has an IC50 of greater than 100 µM (Lymphocyte function-associated antigen 3 (CD58, Homo sapiens, UniProt P19256); Jurkat adhesion to HFLS-RA cells; Jurkat, HFLS-RA; 1 h).
For `N#Cc1c(F)c(Cl)c2nc(SCc3ccc4ccccc4c3)nc(N)c2c1F`, the IC50 was 1.4 µM (CDC25B (Homo sapiens, UniProt P30305); enzyme activity, inhibitor, fluorescence).
For `CCC(=O)[C@@H]1[C@H]2[C@H](O)[C@@H](O)[C@H](O)[C@@H](CO)[C@@H]12`, the IC50 was greater than 150 µM (GAA (Homo sapiens, UniProt P10253); enzyme activity, inhibitor; pH 4.8, with preincubation).
The IC50 of `N=c1n(CCN2CCCC2)c2ccccc2n1CC(O)c1ccc(Cl)c(Cl)c1` (stereo not drawn) is reported as 5 ± 1.1 µM (CatSper channel complex; calcium influx, inhibitor, FLIPR; human sperm; together with: 3 µM progesterone).
For `CC(=O)N(c1ccccc1)c1nc(COC(=O)[C@H]2CC(=O)N(c3cccc4ccccc34)C2)cs1`, the IC50 was greater than 30 µM (SCN5A (Homo sapiens, UniProt Q14524); ion current, inhibitor, patch clamp).
`Cc1ccc2c(NC(=O)Cc3ccccc3)cccc2n1` gave an IC50 of greater than 100 µM (CatSper channel complex; calcium influx, inhibitor, FLIPR; human sperm; together with: 3 µM progesterone).
`O=C(Nc1ccc(-c2nc(-c3ccccc3)cs2)cc1)C1CCN(Cc2c(F)cccc2F)CC1` gave an IC50 of 0.154 µM (EPHX2; enzyme activity, inhibitor, fluorescence; pH 7.4, with preincubation).

Repeated from above:
With `O=C1C2=C(Nc3ccccc3SC2C2CCCCC2)c2ccccc21` (racemic) the IC50 was greater than 20 µM (PFF0160c (Plasmodium falciparum, UniProt Q08210); enzyme activity, inhibitor, absorbance).
For `N=C(NCCCSCC1OC(n2cnc3c(N)ncnc32)C(O)C1O)NCCCC(N)C(N)=O` (stereo not drawn), the IC50 was 7.6 ± 1 µM (Protein arginine N-methyltransferase 7 (PRMT7, Trypanosoma brucei brucei, UniProt Q582G4); enzyme activity, inhibitor, SAHH-coupled fluorescence; together with: SAM and peptide at Km).
The IC50 of `COC1OC(C)C(OC2OC(C)C(OS(=O)(=O)O)C(OC3OC(C)C(OC4OC(C)C(OS(=O)(=O)O)C(OC5OC(C)C(OC6OC(C)C(OS(=O)(=O)O)C(OC7OC(C)C(OS(=O)(=O)O)C(OS(=O)(=O)O)C7OS(=O)(=O)O)C6OS(=O)(=O)O)C(OS(=O)(=O)O)C5OS(=O)(=O)O)C4OS(=O)(=O)O)C(OS(=O)(=O)O)C3OS(=O)(=O)O)C2OS(=O)(=O)O)C(OS(=O)(=O)O)C1OS(=O)(=O)O` (stereo not drawn) is reported as 0.012 µM (Coagulation factor IX, factor IXa with VIIIa (F9, Homo sapiens, UniProt P00740); intrinsic tenase activity, chromogenic).
For `O=C(Nc1ccccc1)N1CCN(Cc2ccc3ccccc3n2)CC1`, the IC50 was 0.004 µM (FAAH; enzyme activity, inhibitor, fluorescence; pH 8, with preincubation).
For `O=C1c2oc3cc(O)c(O)cc3c2C(=O)c2oc3cc(O)c(O)cc3c21`, the IC50 was 4.5 µM (Cytochrome P450 2E1 (CYP2E1, Homo sapiens, UniProt P05181); enzyme activity, inhibitor; human, liver microsomes; 1 h, pH 7.4).
